Assay results pooled from the literature.
Compare with care: the assays were run in different laboratories. Numbers after ± are the reported error.
CDK2 with cyclin A: Cyclin-dependent kinase 2, with cyclin A (CDK2, Homo sapiens, UniProt P24941)
CYP3A4: Cytochrome P450 3A4 (CYP3A4, Homo sapiens, UniProt P08684)
Sequence of UniProt P08684 (whole entry, looked up): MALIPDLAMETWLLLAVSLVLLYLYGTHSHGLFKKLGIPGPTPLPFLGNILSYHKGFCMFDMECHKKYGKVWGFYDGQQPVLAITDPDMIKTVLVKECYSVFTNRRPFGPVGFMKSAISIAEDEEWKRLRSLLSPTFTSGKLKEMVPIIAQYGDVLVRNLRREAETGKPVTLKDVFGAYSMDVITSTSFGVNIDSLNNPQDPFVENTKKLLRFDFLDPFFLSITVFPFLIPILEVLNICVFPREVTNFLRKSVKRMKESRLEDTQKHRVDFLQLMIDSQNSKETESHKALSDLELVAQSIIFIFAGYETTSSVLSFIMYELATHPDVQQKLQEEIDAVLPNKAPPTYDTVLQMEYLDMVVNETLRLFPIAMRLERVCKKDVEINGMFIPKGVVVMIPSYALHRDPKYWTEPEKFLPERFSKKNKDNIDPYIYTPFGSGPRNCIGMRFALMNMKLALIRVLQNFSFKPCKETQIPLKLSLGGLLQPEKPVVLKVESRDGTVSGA
Sequence of UniProt P33260 (whole entry, looked up): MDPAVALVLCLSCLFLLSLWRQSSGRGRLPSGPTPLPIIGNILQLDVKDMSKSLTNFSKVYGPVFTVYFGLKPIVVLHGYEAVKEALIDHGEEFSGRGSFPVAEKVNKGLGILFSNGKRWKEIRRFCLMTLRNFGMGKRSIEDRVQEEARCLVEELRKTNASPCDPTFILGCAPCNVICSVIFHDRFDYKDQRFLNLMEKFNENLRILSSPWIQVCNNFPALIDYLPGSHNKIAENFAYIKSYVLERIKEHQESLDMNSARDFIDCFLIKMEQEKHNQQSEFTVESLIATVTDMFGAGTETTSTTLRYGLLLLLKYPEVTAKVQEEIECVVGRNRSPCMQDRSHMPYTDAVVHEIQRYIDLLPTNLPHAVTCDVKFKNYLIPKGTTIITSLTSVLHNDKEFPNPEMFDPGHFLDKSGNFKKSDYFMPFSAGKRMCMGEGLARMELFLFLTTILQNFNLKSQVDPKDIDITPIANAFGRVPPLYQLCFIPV
Sequence of UniProt P05177 (whole entry, looked up): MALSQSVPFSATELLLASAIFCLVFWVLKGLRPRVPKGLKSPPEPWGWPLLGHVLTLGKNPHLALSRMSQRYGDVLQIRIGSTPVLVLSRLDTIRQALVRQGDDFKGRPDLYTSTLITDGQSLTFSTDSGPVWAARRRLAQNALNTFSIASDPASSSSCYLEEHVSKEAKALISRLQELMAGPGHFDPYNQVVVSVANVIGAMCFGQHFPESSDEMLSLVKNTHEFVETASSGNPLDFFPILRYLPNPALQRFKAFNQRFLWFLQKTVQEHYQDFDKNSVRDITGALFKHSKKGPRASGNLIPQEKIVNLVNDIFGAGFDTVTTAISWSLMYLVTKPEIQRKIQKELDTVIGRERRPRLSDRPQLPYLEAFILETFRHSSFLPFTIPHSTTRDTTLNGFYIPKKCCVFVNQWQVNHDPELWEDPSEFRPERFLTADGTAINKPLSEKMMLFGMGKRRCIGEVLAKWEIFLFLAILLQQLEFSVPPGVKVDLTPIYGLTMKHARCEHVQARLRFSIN
Sequence of UniProt Q96FL8 (whole entry, looked up): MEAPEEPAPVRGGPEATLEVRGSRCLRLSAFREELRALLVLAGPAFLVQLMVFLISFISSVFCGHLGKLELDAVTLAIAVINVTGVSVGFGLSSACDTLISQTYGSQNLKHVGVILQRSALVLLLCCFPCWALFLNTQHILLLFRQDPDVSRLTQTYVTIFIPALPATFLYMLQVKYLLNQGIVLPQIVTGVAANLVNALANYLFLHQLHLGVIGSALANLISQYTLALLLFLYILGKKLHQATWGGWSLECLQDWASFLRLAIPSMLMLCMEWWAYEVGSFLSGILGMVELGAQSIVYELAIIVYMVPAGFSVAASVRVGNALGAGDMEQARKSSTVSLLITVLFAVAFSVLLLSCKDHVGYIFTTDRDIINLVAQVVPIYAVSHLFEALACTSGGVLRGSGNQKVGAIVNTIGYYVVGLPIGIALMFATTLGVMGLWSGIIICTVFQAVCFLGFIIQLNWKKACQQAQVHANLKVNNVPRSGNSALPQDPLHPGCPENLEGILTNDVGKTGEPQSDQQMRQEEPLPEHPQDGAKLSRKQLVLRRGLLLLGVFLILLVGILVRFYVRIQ

The maximal inhibition of `CCc1cc(/C(C)=N/OCc2ccc(C3CCCCC3)c(C(F)(F)F)c2)ccc1CN1CC(C(=O)O)C1` is reported as 3.01% (Multidrug and toxin extrusion protein 1 (SLC47A1, Homo sapiens, UniProt Q96FL8); inhibitor; HEK293 transfected with SLC47A1; up to 40 µM, 2 min, added: MPP+ 0.025 µM).
Under “free serum concentration over IC50”, `COc1cc(O)c(CC=C(C)C)c(O)c1C(=O)/C=C/c1ccc(O)cc1` is recorded as greater than 100 fold (CYP2C9 and CYP2C8; human).
For `CNCc1ccc(-c2[nH]c3cc(F)cc4c3c2CCNC4=O)cc1`, “AST/ALT increased incidence” read 0% (human patients; oral, 240 mg twice daily, all grades).
`Cc1ccnc([18F])c1-c1cccc(N2C[C@H](N3CCN(C(=O)c4nccs4)CC3)CC2=O)c1` gave a VT of 5.41 mL/cm3 (monoacylglycerol lipase; PET, arterial input; rhesus monkey, brain hippocampus; intravenous, baseline).
For `COc1ccc2[nH]cc(CCNC(=O)Nc3ccc(Cl)c(Cl)c3)c2c1`, the Kd was greater than 100 µM (CDK2 with cyclin A).
For `CC1(C)CCC2(CC1)N[C@@H](C(=O)N[C@@H]1CC[C@@H](C(N)=O)OC1)[C@H](c1ccnc(Cl)c1F)[C@]21C(=O)Nc2cc(Cl)ccc21`, “Papp A to B” read 3.66 ×10⁻⁶ cm/s (ATP-dependent translocase ABCB1 (ABCB1, Homo sapiens, UniProt P08183); Caco-2 monolayers; 30 µM, 120 min, no inhibitor).
`COc1ccc(F)cc1C(=O)NCc1ccc(-c2nn([C@@H](C)C(F)(F)F)c(N)c2C(N)=O)cc1` gave a Cmax increase of 4% (CYP3A4; human, both sexes, plasma; oral, 200 mg single dose, added: itraconazole; relative to: without itraconazole).
For `CN1C[C@@H]2C[C@H]1CN2c1cc2c(cc1F)c(=O)c(C(=O)O)cn2C1CC1`, the efflux ratio was 2.38 ± 0.64 (Broad substrate specificity ATP-binding cassette transporter ABCG2 (ABCG2, Bos taurus, UniProt Q4GZT4); transepithelial transport; MDCK-II transduced with ABCG2; 10 µM, 4 h; relative to: B-A over A-B).
For `Cn1cc(-c2ccc(-c3cncc(Cl)c3N3CCC4(CCNC4=O)CC3)cc2)cn1`, “log2 fold change” read 1.23 (COLO 205; gene expression, microarray, measured: PLOD1 mRNA; concentration not given, 2 h; relative to: untreated cells).
The remaining compound of `C[C@H]1CN(C2COC2)CCN1c1ccc(Nc2cc(-c3ccnc(N4CCn5c(cc6c5CC(C)(C)C6)C4=O)c3CO)cn(C)c2=O)nc1` is reported as 93.9 ± 9.2% (Cytochrome P450 2C18 (Homo sapiens, UniProt P33260); recombinant enzyme; 1 µM, 60 min; relative to: 0 min).
Under “AUC(0-inf) (geometric mean)”, `Cc1cc(Nc2ncnc3ccc(NC4=NC(C)(CO)CO4)cc23)ccc1Oc1ccn2ncnc2c1` (centres unmarked) is recorded as 512 ng·h/mL (CYP3A4; human, plasma; oral, 300 mg tucatinib single dose, day 1, tucatinib alone).
With `Cn1c(=O)c2c(ncn2C)n(C)c1=O` the Tmax was 1 h (Cytochrome P450 1A2 (CYP1A2, Homo sapiens, UniProt P05177); human, plasma; oral, 200 mg, day 1, alone, median).
`O=C(Cn1c(NCCO)nc2ccccc21)c1cccc([N+](=O)[O-])c1` gave a Kd of greater than 100 µM (CDK2 with cyclin A).
`Nc1nc2c(ncn2[C@@H]2O[C@@H]3COP(=O)(O)O[C@H]4[C@@H](O)[C@H](n5cnc6c(N)ncnc65)O[C@@H]4COP(=O)(O)O[C@H]2[C@@H]3O)c(=O)[nH]1` has a remaining compound of 20% (Ectonucleotide pyrophosphatase/phosphodiesterase family member 1 (ENPP1, Homo sapiens, UniProt P22413); substrate; 30 min).
`Cl.Cl.Cl.Ic1ccc(N2CCN(Cc3c[nH]c4ncccc34)CC2)cc1` has an inhibition of 6% (Genome polyprotein, NS3 helicase domain (Hepatitis C virus genotype 1b, UniProt Q9WMX2); DNA binding, inhibitor; hepatitis C virus; 100 µM, added: Cy5-dT15 DNA).
`Cc1oc2ccccc2c1Cc1cc(I)c(OCC(=O)O)c(I)c1` gave an inhibition of 63 ± 4% (Voltage-gated inwardly rectifying potassium channel KCNH2 (KCNH2, Homo sapiens, UniProt Q12809, Y652A); hERG current, inhibitor, two-electrode voltage clamp; Xenopus oocytes expressing hERG1 Y652A; 50 µM, almost voltage-independent).
With `C=CC(=O)N1CCN(c2nc(=O)n(-c3c(C)ccnc3C(C)C)c3nc(-c4c(O)cccc4F)c(F)cc23)[C@@H](C)C1` the half-life was 1 h (glutathione; reaction with glutathione, HPLC; pH 7.4, 37 °C, added: 5 mM glutathione).
With `CC[C@H]1[C@@H](O)[C@@H]2[C@H](CC[C@]3(C)[C@@H]([C@H](C)CCNC(=O)NS(=O)(=O)c4ccc(C(C)(C)C)cc4)CC[C@@H]23)[C@@]2(C)CC[C@@H](O)C[C@@H]12` the AUC(0-t) was 404 ng·h/mL (CYP3A4; human, plasma; dose not given, geometric mean, alone).
The terminal half-life of `C=CC(=O)N1C[C@H](Nc2ncnc3[nH]ccc23)CC[C@@H]1C` is reported as 1.1 ± 0.1 h (CYP3A; substrate; human; oral, 30 mg single dose, cpd alone).
`C=CC(=O)N1CCN(c2nc(OC[C@@H]3CCCN3C)nc3c(F)c(-c4nc(N)cc(C)c4C(F)(F)F)c(Cl)cc23)[C@@H](C)C1` has a half-life of 0.857 h (glutathione; reaction with glutathione, HPLC; pH 7.4, 37 °C, added: 5 mM glutathione).

Repeated from above:
Under “AUC(0-inf) (geometric mean)”, `Cc1cc(Nc2ncnc3ccc(NC4=NC(C)(CO)CO4)cc23)ccc1Oc1ccn2ncnc2c1` (centres unmarked) is recorded as 512 ng·h/mL (CYP3A4; human, plasma; oral, 300 mg tucatinib single dose, day 1, tucatinib alone).
The terminal half-life of `C=CC(=O)N1C[C@H](Nc2ncnc3[nH]ccc23)CC[C@@H]1C` is reported as 1.1 ± 0.1 h (CYP3A; substrate; human; oral, 30 mg single dose, cpd alone).
The maximal inhibition of `CCc1cc(/C(C)=N/OCc2ccc(C3CCCCC3)c(C(F)(F)F)c2)ccc1CN1CC(C(=O)O)C1` is reported as 3.01% (Multidrug and toxin extrusion protein 1 (SLC47A1, Homo sapiens, UniProt Q96FL8); inhibitor; HEK293 transfected with SLC47A1; up to 40 µM, 2 min, added: MPP+ 0.025 µM).
